Experimental data pooled from the literature.
Lines come from different studies, so protocols differ. ± gives the spread as reported. Converted amounts (≈) assume the structure as drawn.

Cc1ccnc(NS(=O)(=O)c2ccc(NC(=O)c3cncc(Br)c3)cc2)n1 has a thermodynamic solubility of 146 µM (≈ 65.3 µg/mL) (aqueous buffer; pH 7.4).
For CN1CCN(c2cccc3c2CCN(C(=O)/C=C/c2c(-n4cnnn4)ccc(Cl)c2F)[C@@H]3C(=O)Nc2ccc(C(=O)O)cc2)C(=O)C1, “subjects with skin irritation” read 0% (healthy human subjects; intravenous infusion, 9 mg/h, 5 days).
For Cn1cc(Nc2nccc(-c3ccc4c(c3)CN(C3COC3)CC[C@H]4NC(=O)c3cn(C(C)(C)C)nn3)n2)cn1, “B cell count change” read 35.1% (human, whole blood; 50 mg twice daily, day 14; reference: pre-dose baseline).
Cc1nc2cccc(OCC(C)(C)C(=O)NC(C)C)c2c(N)c1C(=O)O — result for “mean body weight change”: 0.5 ± 0.6 g (Swiss albino CD-1 mouse; oral, 500 mg/kg, 24 h).
O=C(Nc1cnccc1Cl)N1CCN(Cc2ccc3c(c2)OC(F)(F)O3)CC1: “adverse event incidence” 0% (measured: Presyncope; human healthy young men; 25 mg, multiple dose).
O=C(Nc1ccc(OC(F)(F)Cl)cc1)c1cnc(N2CC[C@@H](O)C2)c(-c2ccn[nH]2)c1 — result for “grade ≥2 event rate”: 1% (per laboratory record, measured: bilirubin increase; human patients; oral, dose not given, dose-finding study).
The fu of COc1ccc2c(c1)CN(C(=O)CCN1CCC(Cc3ccccc3)CC1)CC[S@@+]2[O-] is reported as 0.292 (dog plasma; 1000 ng/mL).
Nc1nc2c(nc([N+](=O)[O-])n2[C@@H]2O[C@H](CO)[C@@H](O)[C@H]2O)c(=O)[nH]1: “nucleoside remaining fraction” 0.894 (depurination, RP-HPLC; citrate-phosphate buffer 0.5 mM; 90 min, pH 7, 37 °C).
CN1C(=O)[C@@H](NC(=O)c2nnc(Cc3ccccc3)[nH]2)COc2cccnc21: “unchanged dose in urine” less than 1% (human, both sexes; oral, 800 mg single, 24 h; reference: dose).
Under “urinary potassium excretion change”, Cc1ccc([C@@H]2O[C@H](CO)[C@@H](O)[C@H](O)[C@H]2O)cc1Cc1ccc(-c2ccc(F)cc2)s1 is recorded as 8.8 mEq (Japanese type 2 diabetes patients; 100 mg, day 1, 24 h urine collection; reference: baseline).
For CCOc1c([C@H](C)n2nc(C)c3c(N)ncnc32)cc(Cl)c(F)c1[C@@H]1CNC(=O)C1, the patients was 100% (measured: QTcF ≤450 ms; previously treated B-cell malignancy; oral, 20 mg once daily, baseline QTcF ≤450 ms).
For COc1cc2[nH]c(C)c(-c3ccc(C)cc3C)c(=O)c2cc1Cl, the kinetic solubility was less than 2 µM (pH 7.4).
O=C(N[C@H](Cc1c[nH]c2ccccc12)C(=O)Nc1ccncc1)c1ccc(-c2ccc(F)c(C(F)(F)F)c2)cc1F has a concentration of 21.4 µM (Swiss Webster mouse, female, lung; oral, 50 mg/kg, 8 h, 20% HPβCD vehicle).
Cc1cccc(CNC(=O)c2cn(CCNC(=O)c3ccccc3S)c3cc4c(cc3c2=O)OC(F)(F)O4)n1 has a Cmax of 9.41 ± 1.96 ng/mL (Sprague-Dawley rat, male, plasma; intramuscular, 3 mg/kg of parent drug).
FC(F)(F)c1ccc(CNc2ccc(Cc3c[nH]c4ncc(Cl)cc34)cn2)cn1: “treatment-related adverse events” 0% (measured: Dizziness; patients with advanced solid tumours, non-TGCT cohort; oral, 1000 mg/day, grade 3 or higher).
FC(F)(F)c1ccc(CNc2ccc(Cc3c[nH]c4ncc(Cl)cc34)cn2)cn1 — result for “adverse events, any”: 31% (patients with advanced solid tumours; oral, dose not given, phase Ib, possibly related to compound).
The MRT of O=C1c2ccncc2C(=O)c2c1[nH]c1ccccc21 is reported as 10.4 ± 6.5 h (Sprague-Dawley rat, male, plasma; intravenous, 5 mg/kg).
With COc1ccc2c(=O)n(C)c(-c3ccccc3)nc2c1 the tissue concentration was 12 ng/g (male Sprague-Dawley rat, testis; oral, 30 mg/kg, 0.25 h).
With Cn1cc([C@H]2C[C@H]3CSC(N)=N[C@@]3(c3ccc(F)cc3F)CO2)cn1 the plasma concentration was 0.164 µM (male 129/SVE mouse, plasma; subcutaneous, 3 mg/kg, 1 h).
For CCN1/C(=C/C(C)=O)Sc2ccc(F)cc21, “mean blood pressure change” read 104 ± 6.6% (cynomolgus monkey; oral, 10 mg/kg, 0.5 h post-dose; reference: pre-dose).
CCn1ncc2c1-c1cnc(N)c(c1)O[C@H](C)c1cc(F)ccc1-c1nn(C)nc1C2 — result for “unbound plasma trough concentration”: 88 ± 61 nM (female athymic nude mice, sample A PDX; oral, 5 mg/kg once daily for 1 days, 12 h).
The TEAE incidence of C[C@@H](N)C1CCN(S(=O)(=O)c2cccc3cnccc23)CC1 is reported as 0% (measured: Bradycardia; healthy volunteers; 150 mg, fasted).
The kinetic solubility of Cc1cccc(CNc2nc(-c3ccccn3)nc3ccccc23)n1 is reported as 0.081 mg/mL (Japanese Pharmacopoeia disintegration test solution 2; pH 6.8).
With CC(C)=CCC/C(C)=C/C(=O)O.Cc1cc(/C=C/C#N)cc(C)c1Nc1ccnc(Nc2ccc(C#N)cc2)n1 the kinetic solubility was roughly 150 mg/mL (Labrasol ALF).
For C=CCN1CC(=O)N2[C@@H](Cc3ccc(O)cc3F)C(=O)N(Cc3cccc(N4CC(N5CCN(CC)CC5)C4)n3)C[C@@H]2N1C(=O)NCc1ccccc1, “treatment-related AST increased” read 0% (advanced solid tumour patients; oral, 120 mg twice daily, grade ≥3, dose-escalation).
Under “treatment-emergent adverse events”, O=C(Nc1nc2cccc(-c3ccc(CN4CCS(=O)(=O)CC4)cc3)n2n1)C1CC1 is recorded as 0% (measured: immune system disorders; human rheumatoid arthritis patients; oral, 150 mg once daily, 4 weeks, regardless of relatedness).
The AUC(0-t)/AUC(0-inf) ratio of O=[N+]([O-])c1ccc(-c2ccc(O)cc2)c2cccnc12 is reported as 0.998 (ICR mouse, male, plasma; intravenous, 1 mg/kg).
Cc1ccc(Sc2ccccc2N2CCNCC2)c(C)c1: “participants with TEAE” 0% (measured: protein in urine; healthy adult women; oral, 10 mg daily, 12 days).
[18F]c1ccc(-c2ccc3c(c2)[nH]c2ccncc23)cn1 gave an uptake of 7.97 ± 8.09 SUV (ex vivo biodistribution; APP/PS1 mouse, Alzheimer model, urine; intravenous, 30 min).
For COc1ccc([C@@H](O)c2cc(-c3ncnc4cc(N5CCOCC5)ccc34)c(F)cc2Cl)nn1, “incidence of proctitis TEAE” read 33% (locally advanced rectal cancer; oral, 100 mg, together with: capecitabine and radiotherapy).
For c1csc(CNc2cc[nH]n2)c1, the tail DNA was 5.19% (alkaline comet; Hsd:ICR(CD-1) mice, female, liver; oral, 1000 mg/kg/day, 3 days).
For CC(C)NCCCC[C@@H]1NC(=O)[C@H](Cc2ccc(O)cc2)NC(=O)[C@H](Cc2ccccc2)NC(=O)CC[C@H](C(=O)N[C@@H](CCCCNC(C)C)C(=O)N[C@@H](CCCCNC(=O)[C@H](CCC(=O)O)NC(=O)[C@H](CCC(=O)O)NC(=O)[C@H](CCC(=O)O)NC(=O)CN2CCN(CC(=O)O)CCN(CC(=O)O)CCN(CC(=O)O)CC2)C(N)=O)NC(=O)CNC(=O)[C@H](Cc2ccc3ccccc3c2)NC(=O)[C@@H](CCCNC(=N)N)NC1=O [gallium-68 labelled], the tissue uptake was 0.09 %ID/g (mouse with Daudi xenograft, bone; intravenous, 2 h).
CC=CC1CCC(C2CCC(CCC)CC2)CC1 (stereo not drawn): “median placental accumulation” 10.4 ng/g (rat, placenta; 1000 ng/mL in perfusate, middle dose, mixture of 21 LCMs).
For COc1cccc(OC)c1-c1cc(C(=O)NC2(C(=O)O)C3CC4CC(C3)CC2C4)nn1-c1ccc(C(=O)N(C)CCCN(C)CCCN(C)C(=O)CN2CCN(CC(=O)[O-])CCN(CC(=O)[O-])CCN(CC(=O)[O-])CC2)cc1C(C)C.[177Lu+3] (stereo not drawn), the tumour-to-lung ratio was 38.1 (mouse, HT-29 xenograft; 72 h post injection, biodistribution; reference: tumour over lung uptake).
The nausea incidence of CNCc1ccc(-c2[nH]c3cc(F)cc4c3c2CCNC4=O)cc1 is reported as 30.8% (human patients; oral, 600 mg twice daily, grade 1).
CCCC1CCC(c2ccc(-c3ccc(F)c(F)c3)cc2)CC1 (stereo not drawn) — result for “median fetal accumulation”: 0.06 ng/g (Sprague-Dawley rat, female, fetus; 5000 ng/mL in perfusate, 50 (unit not given), high dose, mixture of 21 LCMs).
Cc1cc(-c2nccc3c2ccn3CC(=O)Nc2ccc(-c3cnccn3)cn2)ccn1: “medical device site dermatitis” 37.5% (human; 5 mg once daily, multiple ascending dose).
N#Cc1ccc2c(c1)[C@H]1CCCN(C(=O)c3ccc4[nH]cnc4c3)[C@H]1C2 — result for “ACTH level change”: 2.5 pmol/L (human; 160 mg, day 7; reference: baseline).
Under “mean deviation from nominal”, Nc1ncn([C@H]2C[C@H](O)[C@@H](CO)O2)c(=O)n1 is recorded as 1.42% (processed mouse plasma; 1.2 ng/mL, 24 h, 4 °C, re-injection stability).
For CN(C(=O)n1cnc(-c2ccc[n+]([O-])c2)c1)[C@H]1CC[C@H](O)CC1, the concentration was 9 ± 7 ng/g (Wistar rat, medulla oblongata; oral, 10 mg/kg/day of BIA 10-2474, 48 h, repeated 5 days).
For Cc1cc(-c2nnc(N)nc2-c2ccc(F)cc2)cc(Cl)n1, “patients with treatment-related adverse events” read 29.4% (measured: Vomiting; human phase Ia/Ib NSCLC, post-immunotherapy; oral, 100 mg once daily).
Cl.[2H]C([2H])([2H])CC(=O)c1cnc(NC(=O)C2CC2)cc1Nc1cccc(-c2ncn(C([2H])([2H])[2H])n2)c1OC gave a Tmax of 1.08 h (median; human; oral, 40 mg twice daily, day 14, fasted, tablet, multiple dose).

Some of these lines once more:
CC=CC1CCC(C2CCC(CCC)CC2)CC1 (stereo not drawn): “median placental accumulation” 10.4 ng/g (rat, placenta; 1000 ng/mL in perfusate, middle dose, mixture of 21 LCMs).
Cl.[2H]C([2H])([2H])CC(=O)c1cnc(NC(=O)C2CC2)cc1Nc1cccc(-c2ncn(C([2H])([2H])[2H])n2)c1OC gave a Tmax of 1.08 h (median; human; oral, 40 mg twice daily, day 14, fasted, tablet, multiple dose).
Under “urinary potassium excretion change”, Cc1ccc([C@@H]2O[C@H](CO)[C@@H](O)[C@H](O)[C@H]2O)cc1Cc1ccc(-c2ccc(F)cc2)s1 is recorded as 8.8 mEq (Japanese type 2 diabetes patients; 100 mg, day 1, 24 h urine collection; reference: baseline).
